{"data": "Measured values gathered from unrelated publications", "note": "Parts stem from different laboratories: compare values within a part only. Positions count from the first letter of the parent shown."}
{"data": "Series 1", "target": "Interferon regulatory factor 5, full length, phosphomimetic (IRF5, Homo sapiens, UniProt Q13568-2, residues 1-514, S451D/S453D/S456D/S462D)", "method": "protein-binding microarray", "form": "double-stranded DNA, one strand shown", "medium": "in vitro", "concentration": "940 nM top", "notes": "60-bp whole probe", "together with": "salmon DNA 0.4 mg/ml", "relative to": "random background probes", "reading": "higher = stronger binding", "constant ends, left off below": "GCCTAGCAC … GTCTTGATTCGCTTGACGCTGCTG"}
{"Oligonucleotide": "GACGAACTGAGTATCGAGAAGTGCTAG", "fitted relative affinity": "0.974 z-score"}
{"Oligonucleotide": "TTAGGTTTCGGGCTTCGGTTAGTGCTA", "fitted relative affinity": "8.13 z-score"}
{"Oligonucleotide": "GACGATTTAGGGTTTCGAGACGTGCTA", "fitted relative affinity": "1.46 z-score"}
{"Oligonucleotide": "GACGCTCTCCTTATCCTGACGTGCTAG", "fitted relative affinity": "0.871 z-score"}
{"Oligonucleotide": "TCAAGTTTCTCCTTTCCACTGTGCTAG", "fitted relative affinity": "3.39 z-score"}
{"Oligonucleotide": "TTAGATTCCAGTTTCGATTAGTGCTAG", "fitted relative affinity": "8.85 z-score"}
{"Oligonucleotide": "TTAGAACTGGGGTTTTGATTAGTGCTA", "fitted relative affinity": "0.525 z-score"}
{"Oligonucleotide": "GAGGATCTCAGTTTCGAGACGTGCTAG", "fitted relative affinity": "3.29 z-score"}
{"Oligonucleotide": "CTCCACTTGTGTTTGGGCATGTGCTAG", "fitted relative affinity": "-0.318 z-score"}
{"Oligonucleotide": "TTAGGTTTCGACGATCGGTTAGTGCTA", "fitted relative affinity": "8.12 z-score"}
{"Oligonucleotide": "CTGTTTTTCCCCTGCACTCAGTGCTAG", "fitted relative affinity": "1.39 z-score"}
{"Oligonucleotide": "TCAAGCCTCAGTCCTCACACTGTGCTA", "fitted relative affinity": "0.029 z-score"}
{"Oligonucleotide": "TTAGGACAGGGACTGGGTTAGTGCTAG", "fitted relative affinity": "-0.426 z-score"}
{"Oligonucleotide": "TTAGGTATCTGGTTTCGGTTAGTGCTA", "fitted relative affinity": "8.53 z-score"}
{"Oligonucleotide": "TCACATTTTGGTTTTCTACTGTGCTAG", "fitted relative affinity": "1.41 z-score"}
{"Oligonucleotide": "TCTTTTTATGCTTTCTTTAAGTGCTAG", "fitted relative affinity": "2.7 z-score"}
{"Oligonucleotide": "GGCAAAAACATGAACAGACAGTGCTAG", "fitted relative affinity": "-0.63 z-score"}
{"Oligonucleotide": "TCACTTCTGTTTTTGCTACTGTGCTAG", "fitted relative affinity": "1.04 z-score"}
{"Oligonucleotide": "TTAGGACTGGGGGCTGGGTTAGTGCTA", "fitted relative affinity": "1.56 z-score"}
{"Oligonucleotide": "TTAGGACTGCATTTCCTTTAGTGCTAG", "fitted relative affinity": "-0.529 z-score"}
{"Oligonucleotide": "TTTGATATCGGGTTTCGATTAGTGCTA", "fitted relative affinity": "5.42 z-score"}
{"Oligonucleotide": "TCAGTTGTAGGTTTTCTGACTGTGCTA", "fitted relative affinity": "-0.144 z-score"}
{"Oligonucleotide": "GACGATACCGGGTTTCGAGACGTGCTA", "fitted relative affinity": "2.51 z-score"}
{"Oligonucleotide": "TCACTTCTGCTTCCTCAGACTGTGCTA", "fitted relative affinity": "0.729 z-score"}
{"Oligonucleotide": "GACGGTATCGGTTTCGGGCCGTGCTAG", "fitted relative affinity": "9.24 z-score"}
{"data": "Series 2", "target": "BATF, bZIP domain (human)", "method": "DHFR protein complementation", "medium": "yeast", "notes": "single substitutions, most at no-binding floor", "relative to": "wild-type JUN-FOS pair", "reading": "higher = stronger binding", "starting sequence": "JUN, bZIP domain (human); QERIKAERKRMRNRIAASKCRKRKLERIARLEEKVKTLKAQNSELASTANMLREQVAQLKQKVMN; partner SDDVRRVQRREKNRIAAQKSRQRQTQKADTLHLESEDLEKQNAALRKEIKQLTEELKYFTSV"}
{"Variant": "S43F", "binding fitness [natural log]": -0.0847}
{"Variant": "E54I", "binding fitness [natural log]": -0.0711}
{"Variant": "S47F", "binding fitness [natural log]": 0.0131}
{"Variant": "R30Q", "binding fitness [natural log]": 0.105}
{"Variant": "S43C", "binding fitness [natural log]": -0.0314}
{"Variant": "L38T", "binding fitness [natural log]": -0.818}
{"Variant": "E44P", "binding fitness [natural log]": -1.26}
{"Variant": "E54Q", "binding fitness [natural log]": -0.193}
{"Variant": "N42R", "binding fitness [natural log]": -0.0945}
{"Variant": "A57E", "binding fitness [natural log]": 0.0463}
{"Variant": "V35E", "binding fitness [natural log]": -0.642}
{"Variant": "E33G", "binding fitness [natural log]": -0.184}
{"Variant": "Q41Y", "binding fitness [natural log]": -1.46}
{"Variant": "T48G", "binding fitness [natural log]": -0.637}
{"Variant": "K39Y", "binding fitness [natural log]": -0.253}
{"Variant": "Q41K", "binding fitness [natural log]": -0.135}
{"Variant": "Q58S", "binding fitness [natural log]": 0.0279}
{"data": "Series 3", "target": "CCNB2, cyclin fold, Cln2 fusion (human)", "method": "yeast growth competition, sequencing", "medium": "yeast", "notes": "weak parent motif", "relative to": "not given", "reading": "higher = stronger binding", "starting sequence": "BORA docking peptide (human); SSLRRKLFLDGNG; partner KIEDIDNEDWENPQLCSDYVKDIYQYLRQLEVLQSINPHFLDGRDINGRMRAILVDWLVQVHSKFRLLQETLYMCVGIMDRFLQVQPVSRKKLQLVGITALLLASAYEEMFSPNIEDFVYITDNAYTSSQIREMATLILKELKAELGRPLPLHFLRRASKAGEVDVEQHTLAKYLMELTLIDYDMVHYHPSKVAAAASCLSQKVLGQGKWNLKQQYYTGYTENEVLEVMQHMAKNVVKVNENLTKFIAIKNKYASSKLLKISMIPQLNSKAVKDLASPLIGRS"}
{"Variant": "S1A", "normalised enrichment score": 0.739}
{"Variant": "F8L", "normalised enrichment score": 0.605}
{"Variant": "F8A", "normalised enrichment score": 0.702}
{"Variant": "R5A L7A", "normalised enrichment score": -0.253}
{"Variant": "L9A", "normalised enrichment score": -0.192}
{"Variant": "G11A", "normalised enrichment score": 0.497}
{"Variant": "R5A", "normalised enrichment score": 0.208}
{"Variant": "S2A", "normalised enrichment score": 0.765}
{"Variant": "R5K", "normalised enrichment score": 0.966}
{"Variant": "G13A", "normalised enrichment score": 0.442}
{"Variant": "L9F", "normalised enrichment score": 0.841}
{"data": "Series 4", "target": "RNA binding protein fox-1 homolog 2, RRM domain, GST-SBP tag (RBFOX2, Homo sapiens, UniProt O43251-10, residues 100-194)", "method": "RNA Bind-n-Seq", "form": "RNA", "medium": "in vitro", "concentration": "365 nM", "notes": "natural RNA segment, single round, ends assumed", "relative to": "no-protein control", "reading": "higher = stronger binding", "constant ends, left off below": "GGGAGUUCUACAGUCCGACGAUC … UGGAAUUCUCGGGUGCCAA", "Construct (chain)": "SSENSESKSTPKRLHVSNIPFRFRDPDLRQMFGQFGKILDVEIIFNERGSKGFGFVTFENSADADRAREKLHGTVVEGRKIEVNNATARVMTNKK"}
{"Oligonucleotide": "GUAGGAGCCCCUAGUGGGGCUGGUGGACAGCUUUGGAAGAGGUGUCCUGCUGCUGUUACCAGCCAUGUGGGCCCCAUAGGGGCACUGCGCCUGCUGCCCUUUCCUGGCAG", "RBNS enrichment (R)": 1.03}
{"Oligonucleotide": "CCAGUCCAGGUUGGAAAGAAGUCUCCUUAGUGUCAGAUUAAGCCCCAUCUCUUAACAAUAUGGACAGAUGAGUGUGCCAUGGCCAUGAGCUAUUUCCUAACGCAGAAGGA", "RBNS enrichment (R)": 0.786}
{"Oligonucleotide": "UGCUUGUUCUUCUGAACUUGGGGACCAUGCCUCUUUGGGCUCUGCUUCCAGGAUGGUUUGGGAAGCAUAGCAGGGCACGGCUCGGCUCCUGAGAUCCAUCCCCUAGACUG", "RBNS enrichment (R)": 1.41}
{"Oligonucleotide": "AUCCCCUGGGCAGGGGGCGACAACUCCGUGUAGCAUUAACCCCCGUGGCGGGGUCCGCUGCUGGUCUAAUUUGGACCCCCUGCCUCUCAGUGCCCCUGCCCUAGGGGUGU", "RBNS enrichment (R)": 0.345}
{"Oligonucleotide": "UUGCAGUGAUAUUUAGUUAAUGAUUUGUUUUGGAAAACAUGCAGUUAGGAGUAUUUUUGUAUUUUGUCAGAUGUUUAGGAGACAGACUUUCGGGUCAUGUUUCUUGUCUU", "RBNS enrichment (R)": 0.326}
{"Oligonucleotide": "AUGCCUCGCUGGGGCUGAGACUUUUUUAAUCCUUGUGUAAAGAAGCGAGAUCGAGGCAGAGAAACGUAAUUUGUCCAUCACAUGGGGUUUGGAAAUAAAUAUAUUAUUUG", "RBNS enrichment (R)": 0.535}
{"Oligonucleotide": "AGUCGAUCCCACCAGCCCUCGAUGUGCACAGGCAGUGGGUGUCAAGCUCGGGAAGUGGCUGGCUGGCUGGCUGGCAUGUCUAGACGCCUGGUGAGUUAUCAGCCAGUUAA", "RBNS enrichment (R)": 0.663}
{"Oligonucleotide": "GACGUCAACGGAGGAACCUCGGUUCUUCAACACAAGCUUUGUAUGUAAGCCGAGAGAAAAGUCAUGUAUAUCAGGCCUAGGUCUUGACACUUAAUUUUCUAUUGUAAAAA", "RBNS enrichment (R)": 0.379}
{"Oligonucleotide": "CAAGGGUUGUCACUUUCCUAGAGGGUGUGAGCGUUCUGCCAGCCACAACCAUGUCUCAGACUCAAGAGCUCCGUCAACAGAGCCUCGGAACUGGCCACUCAAUACAGUCU", "RBNS enrichment (R)": 0.48}
{"Oligonucleotide": "CCCCUGGGCCACUUCUGCAGCUCCCACCAGAAUGGAUGACCAGAUUCUGUUGGGUUUGGGCACAUAGGGCCAAAGGCAGAGGAGGGUGGCACUCUCAUGUUGGAACUUCU", "RBNS enrichment (R)": 1.68}
{"Oligonucleotide": "CCUAUCAGGAAAAGUUUCUAGAAAGCCAACGAGGGUCAGUAGUUUAGUGUCAUUCCUGGAAUUAACUUAUCAUGCAUUUGCUUAGUUAAAGUCAAAAUUUAAUAUUGGUU", "RBNS enrichment (R)": 0.851}
{"Oligonucleotide": "AAGAUAGUGUAACUUGCUUAAAUUUCUUAUGUGACAUUAACAAAUAAAAAAGCUCUUUUAAUAUUGAUAUACUGUCCUUUUUAACGCUUUAAAAACAGAUUUUGAGGGGA", "RBNS enrichment (R)": 0.38}
{"data": "Series 5", "target": "ABI1, truncated, D143A, DHFR fusion (Arabidopsis thaliana)", "method": "DHFR PCA, deep sequencing", "medium": "yeast", "notes": "methotrexate growth selection, single substitutions", "together with": "(+)-ABA 17 µM", "relative to": "wild-type fitted maximum", "reading": "higher = stronger binding", "starting sequence": "PYL1, truncated, DHFR fusion (Arabidopsis thaliana); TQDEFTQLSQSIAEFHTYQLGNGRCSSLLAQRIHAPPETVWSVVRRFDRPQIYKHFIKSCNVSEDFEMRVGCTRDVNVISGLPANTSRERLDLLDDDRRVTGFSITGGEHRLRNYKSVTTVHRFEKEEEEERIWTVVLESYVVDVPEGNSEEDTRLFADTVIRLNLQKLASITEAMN; partner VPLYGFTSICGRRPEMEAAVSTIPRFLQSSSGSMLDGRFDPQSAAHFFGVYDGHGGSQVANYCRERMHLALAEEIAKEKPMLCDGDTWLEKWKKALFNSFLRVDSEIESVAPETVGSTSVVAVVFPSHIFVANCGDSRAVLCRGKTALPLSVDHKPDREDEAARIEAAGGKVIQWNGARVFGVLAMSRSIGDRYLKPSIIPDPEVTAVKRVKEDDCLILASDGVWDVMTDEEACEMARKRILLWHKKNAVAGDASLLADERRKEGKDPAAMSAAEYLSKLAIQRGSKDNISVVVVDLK"}
{"Variant": "F15P", "relative binding score [%]": 5.64}
{"Variant": "S104R", "relative binding score [%]": 18.5}
{"Variant": "F47M", "relative binding score [%]": -9.71}
{"Variant": "E4Y", "relative binding score [%]": 71.6}
{"Variant": "R98T", "relative binding score [%]": 57.6}
{"Variant": "V44W", "relative binding score [%]": -33.7}
{"Variant": "R88N", "relative binding score [%]": 77.7}
{"Variant": "D3Y", "relative binding score [%]": 71.3}
{"Variant": "Q10C", "relative binding score [%]": 77.6}
{"Variant": "A13I", "relative binding score [%]": 66.6}
{"Variant": "E127C", "relative binding score [%]": 84.2}
{"Variant": "E174D", "relative binding score [%]": 27.5}
